Assay results from different studies.
A part holds a random share of what one study measured.

Block 1
Target: RNA binding protein fox-1 homolog 2, RRM domain, GST-SBP tag (RBFOX2, Homo sapiens, UniProt O43251-10, residues 100-194)
Technique: RNA Bind-n-Seq
Form: RNA
Sample: in vitro
Tested at: 365 nM
Notes: natural RNA segment, single round, ends assumed
Relative to: no-protein control
Direction: higher = stronger binding
Measurement: RBNS enrichment (R)
Shared flanks, not repeated: GGGAGUUCUACAGUCCGACGAUC … UGGAAUUCUCGGGUGCCAA
Construct (chain): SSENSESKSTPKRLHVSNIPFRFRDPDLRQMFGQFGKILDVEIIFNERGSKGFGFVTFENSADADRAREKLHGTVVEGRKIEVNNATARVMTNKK
UCACUUAAAAGCUGACAGCCCUCAUCUGUCUCAUUGGCUACAUAAGAGCUGCAGAAGAUCCAUCAAUAACCAAGUAUAAAGAAAGAUUUUAAGACUAAGUACCAAUUGAG: 0.321
GGGUUUUGUAUGCCCGUGUUCCUUAAAGCCAAGGGUUUGAAAGCCACGCUGGUCUUCUGAGAUUCCAAGUCCUUCCCCAGCUGACAUGCCCGUAGCCCCUUCCGACUCAG: 0.455
AAUCAGCAUGCUUGUGCAUUACGUGGAGGUUGGAGGUGUCAUCUUUGUUGGGAUGACUGAUUGGGGCUAUCUGUUGUCAACAAGCGUCGUCUCCACCAUUGUGGAUGGAG: 3.46
CUUCUGCUGUUCUUCACUUCUGGGAAAUUGAAGUGUCUUCUGUUCCCAAGGAAGCUCCUUCCUGUUUGUUUUGUUUUCUAAGAUGUUCAUUUUUAAAGCCUGGCUUCUUA: 2.01
CACUUAGCUAUCUGAAACUUGAGGCAUUCCAGACCUGACAUGUUUACAAUGCACCACUGAACUUUUUUAAAUUGAAUUAAUCAGAUGUAUAUUUGUACCACUUUGGGGGG: 0.63
UGAAUCAUGUACACAGCAGGAGUGGUCACAGUAAAAACUGGUAGCAGGAAAAUUUGAAAGGGUUUGAAAUGCCCUGAAAUCAGGGCAAGUACUUAAUGGGGAAAAAAAAG: 0.928
UCUUCUACUCUAGAAGAAAGACUUUGGAAGCAGCUGCUGCUGCUGCCACCACUCCUGUCAGCAAGUGCUCAGAGCAGGUGGGAGGCACAGAUUGUCCGUGGGAGGGCUCC: 0.438
UCACCUUGCUUCUGGGUUGUGUUUCUUCUCUUACUACCUCACUGCACCUGGACACUAGAGUGGAUGAAUGUCUGGAGUUCACCUGCAUUUGGACUGUGUGAUUGUGCCUC: 4.57
UUUCAUUCACUAAUGUUAAGGUUAAUAUGUUUAAGAUCUUGUUUAAAUGAUGUUUCUUCUGCAACUGGCUACUCCUCUUAUAUUAAUGCAUACACUUUUGUAAAGAAGUA: 0.666
CUCCCAGGCAGUGCUCAUGCGCUGGCCGUCGGGGGAGGCAGGGGCACAGCCUCCAUGUGCGCGCGCGUGUGGAGCUGUGUGCACCGCAUGUGUGCUUUCCACAGGGGCGU: 0.376
GCGCCCUUUGCAUGUUGCACUCUGUUCUCAUUUGGAGGUUGGACUCAGACCAGUUAGCACAGUAUUCUCUCAUCUGUGUCACUUUGUAAAACUAACUGUACUCUGUAUUU: 37.3
UUUACAGGAGGUUGUGGAUGCUCCAGGGCAGCCUCCACCUUGCUCUUCUUUCUGAGAGUUGGCUCAGGCAGACAAGAGCUGCUGUCCUUUUAGGAAUAUGUUCAAUGCAA: 0.612

Block 2
Target: PABPC1L2, full length, GST fusion (mouse, UniProt A0ABA7IW68)
Technique: RNAcompete
Form: RNA
Sample: in vitro
Tested at: 20 nM
Notes: 7-mer, probes averaged, single round
Relative to: mean of 7-mers
Direction: higher = stronger binding
Measurement: 7-mer Z-score
Target sequence (chain): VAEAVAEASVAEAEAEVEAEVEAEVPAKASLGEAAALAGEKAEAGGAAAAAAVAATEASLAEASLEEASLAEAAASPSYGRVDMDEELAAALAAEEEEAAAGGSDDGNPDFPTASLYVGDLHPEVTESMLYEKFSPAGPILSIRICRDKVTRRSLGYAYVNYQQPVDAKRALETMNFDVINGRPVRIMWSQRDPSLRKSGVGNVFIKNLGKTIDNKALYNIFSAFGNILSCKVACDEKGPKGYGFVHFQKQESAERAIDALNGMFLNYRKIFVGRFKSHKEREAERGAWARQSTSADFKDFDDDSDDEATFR
UUUGCAU: -0.282
GCGUGCC: -0.0718
GGCGAUC: 0.000733
CCAUGCA: -0.108
GGGGCCA: 0.617
GUCGAGU: -0.079
UCUAGGG: -0.15
GGCAGUC: -0.0464
AGUCCAA: 0.369
CGUUCGA: -0.391
UGGCUUC: -0.315
CGAAAAU: 2.92
UCAGGGA: 0.289
CUUCCUU: -0.356
CGGGAAC: 0.0279
GUCUACC: -0.295

Block 3
Target: Histone acetyltransferase KAT6A, winged helix 2, GST fusion (KAT6A, Homo sapiens, UniProt Q92794, residues 85-181)
Technique: protein binding microarray
Form: double-stranded DNA, one strand shown
Sample: in vitro
Tested at: not given
Notes: 8-mer, flanks averaged, mean of 2 arrays, mostly near background
Relative to: not given
Direction: higher = stronger binding
Measurement: E-score
Target sequence (chain): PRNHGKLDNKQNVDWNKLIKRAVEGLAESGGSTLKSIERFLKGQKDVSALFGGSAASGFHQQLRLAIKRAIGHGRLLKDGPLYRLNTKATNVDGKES
AGATTGGG: 0.0626
GACTGACA: -0.0788
ATTGCAGA: 0.0626
CCTACGCA: -0.127
AGTCGATC: -0.0025
GCCTAGTA: -0.054
AAACGAGT: 0.0218
GCGTCGAC: 0.113
AGAGTAAT: 0.0697
AATACCGA: -0.0529
GACAACAA: 0.0267
ACATCTGC: -0.133
ACAACTTC: -0.0449
AGCGCGCG: 0.208
CATCGATC: -0.152
AACCTGCA: 0.0355
GAGCTCAC: -0.0616
AATTTTAG: -0.0375
TCGACAAA: 0.0672
CGGGCTGA: 0.167
CGGTAACG: -0.0869

Block 4
Target: Prothrombin, mature alpha-thrombin (F2, Homo sapiens, UniProt P00734)
Technique: aptamer microarray, sandwich
Form: DNA with 2'F-ANA
Sample: in vitro
Tested at: 200 nM
Notes: whole 15-mer aptamer, many near background
Added: Cy3 exosite-II aptamer, 400 nM
Direction: higher = stronger binding
Measurement: mean fluorescence intensity
Oligonucleotide: GGTTGGTGTGGTTGG
2'F-ANA at 2 3 4 5 6 8 15: 99.4 a.u.
2'F-ANA at 2 3 4 7 10 11 15: 232 a.u.
2'F-ANA at 9 11 12 13 15: 606 a.u.
2'F-ANA at 2 3 6 7 9 10: 292 a.u.
2'F-ANA at 1 3 4 6 10 11 12 14 15: 53.4 a.u.
2'F-ANA at 11 12: 804 a.u.
2'F-ANA at 1 4 5 9 10 12 14: 43.4 a.u.
2'F-ANA at 4 7 8 9 11 12 13 15: 347 a.u.
2'F-ANA at 1 2 3 4 5 6 9 10 13 14 15: 54.1 a.u.
2'F-ANA at 1 2 3 4 5 6 7 12 14: 52.6 a.u.
2'F-ANA at 1 3 5 6 8 9 12 13 15: 91.1 a.u.
2'F-ANA at 1 2 4 5 6 13: 47.4 a.u.
2'F-ANA at 5 6 7 9 12: 178 a.u.
2'F-ANA at 2 4 6 8 10: 101 a.u.
2'F-ANA at 3 4 10 11 13: 253 a.u.
2'F-ANA at 3 5 7 8 12 13: 374 a.u.
2'F-ANA at 2 3 4 10 12 13: 285 a.u.

Block 5
Target: Sal-like protein 4, full length isoform A (SALL4, Homo sapiens, UniProt Q9UJQ4, residues 1-1053)
UniProt Q9UJQ4, sequence (whole entry, looked up): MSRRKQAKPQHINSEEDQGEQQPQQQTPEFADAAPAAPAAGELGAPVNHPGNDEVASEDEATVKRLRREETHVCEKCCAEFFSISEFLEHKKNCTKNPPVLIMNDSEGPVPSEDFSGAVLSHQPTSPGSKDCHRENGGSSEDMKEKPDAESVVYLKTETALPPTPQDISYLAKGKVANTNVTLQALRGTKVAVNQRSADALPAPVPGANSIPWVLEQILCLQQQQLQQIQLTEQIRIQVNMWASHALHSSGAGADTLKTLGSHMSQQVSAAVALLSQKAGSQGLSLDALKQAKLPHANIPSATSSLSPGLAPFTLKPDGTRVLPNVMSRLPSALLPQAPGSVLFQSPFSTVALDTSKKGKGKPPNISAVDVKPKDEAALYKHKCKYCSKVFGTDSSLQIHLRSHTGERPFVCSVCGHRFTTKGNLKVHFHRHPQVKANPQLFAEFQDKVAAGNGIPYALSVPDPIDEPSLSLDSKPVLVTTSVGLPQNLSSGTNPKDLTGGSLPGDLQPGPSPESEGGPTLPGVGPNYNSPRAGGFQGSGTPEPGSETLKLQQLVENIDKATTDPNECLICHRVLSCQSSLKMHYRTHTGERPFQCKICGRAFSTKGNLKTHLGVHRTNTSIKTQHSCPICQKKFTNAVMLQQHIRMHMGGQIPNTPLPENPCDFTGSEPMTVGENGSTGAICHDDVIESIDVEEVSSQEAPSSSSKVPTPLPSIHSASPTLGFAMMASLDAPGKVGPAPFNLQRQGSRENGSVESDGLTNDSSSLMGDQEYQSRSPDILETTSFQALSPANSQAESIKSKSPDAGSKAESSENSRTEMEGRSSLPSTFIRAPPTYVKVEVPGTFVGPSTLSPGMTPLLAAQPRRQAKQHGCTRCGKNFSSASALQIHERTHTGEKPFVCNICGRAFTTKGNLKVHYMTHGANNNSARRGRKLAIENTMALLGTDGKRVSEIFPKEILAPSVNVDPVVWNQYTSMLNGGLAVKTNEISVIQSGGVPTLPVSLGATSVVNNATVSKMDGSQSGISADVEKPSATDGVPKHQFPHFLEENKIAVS
Technique: universal PBM
Form: double-stranded DNA, one strand shown
Sample: in vitro
Tested at: 600 nM
Notes: 8-mer, flanks averaged, mean of replicates
Direction: higher = stronger binding
Measurement: E-score
CATCGATG: 0.117
ACTAAGCA: 0.0477
AAGCGCTT: 0.0878
AATCTGGA: 0.119
GTCCCACA: -0.208
CCTACACG: -0.197
GAGGTGTA: -0.0643
GCGACAAA: 0.0137
GTAGCTGA: -0.111
CGCCTGCC: -0.284
TCATAGCA: 0.195
CTTTACCA: 0.117
GGGTTCTA: -0.124
AAAATCGT: 0.247
AAATTTCC: 0.109
GTATGGGA: -0.0759
AAAAAGGG: 0.0716
CAGAAAAA: 0.0644
AACTAAGT: 0.151
ATGCAACG: -0.00894
GATCCAAC: -0.115
GACGGTTA: -0.0712
CGGTACAA: 0.109
